Measurements from different studies.
Numbered parts are unrelated; each lists some results of a single study. Changes are numbered by the printed parent chain.

Set 1 — technique: protein binding microarray; form: double-stranded DNA, one strand shown; sample: in vitro; tested at: not given; relative to: not given; reading: higher = stronger binding; quantity: E-score
Target: Histone acetyltransferase KAT6A, winged helix 2, GST fusion (KAT6A, Homo sapiens, UniProt Q92794, residues 85-181)
Notes: 8-mer, flanks averaged, mean of 2 arrays, mostly near background
Target sequence (chain): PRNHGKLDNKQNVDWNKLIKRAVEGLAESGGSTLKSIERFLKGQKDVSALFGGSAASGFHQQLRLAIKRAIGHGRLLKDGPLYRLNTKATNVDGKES
AATAGAGC: 0.143
CATCAATA: -0.0693
GGGAGGAA: 0.196
ATACGCAC: 0.146
AGAGGGAG: -0.0975
GTTTGAAA: 0.131
TATTGTGA: -0.185
ACCATGGG: -0.117
AGACTGGA: -0.13
AGCGACCC: 0.122
AAGCATAA: 0.0103
GCTGATCC: -0.00822
AGGCCTTC: 0.0267
ATTGTCCG: 0.0919
CGCCGAGC: 0.206
AGGGGAGC: -0.0217
AGGCGATA: -0.022
TGCATGAA: -0.0028
AGGTACAG: -0.141
ACTTCGTG: 0.109
ATCGCTTC: 0.0975
GGTTGTCA: -0.0976
ATTGTGAC: -0.0907
TCTAGCAA: 0.0961
TATTAAAA: 0.151

Set 2 — technique: competition protein-binding microarray; form: double-stranded DNA, one strand shown; sample: in vitro; tested at: 2 µM; together with: Cbf1 competitor, 0.05 µM; reading: higher = stronger binding; quantity: fluorescence intensity
Target: Phosphate system positive regulatory protein PHO4, full length, GST-tagged (PHO4, Saccharomyces cerevisiae, UniProt P07270, residues 1-312)
Notes: whole 60-bp probe, lowest competitor level
Residues (chain): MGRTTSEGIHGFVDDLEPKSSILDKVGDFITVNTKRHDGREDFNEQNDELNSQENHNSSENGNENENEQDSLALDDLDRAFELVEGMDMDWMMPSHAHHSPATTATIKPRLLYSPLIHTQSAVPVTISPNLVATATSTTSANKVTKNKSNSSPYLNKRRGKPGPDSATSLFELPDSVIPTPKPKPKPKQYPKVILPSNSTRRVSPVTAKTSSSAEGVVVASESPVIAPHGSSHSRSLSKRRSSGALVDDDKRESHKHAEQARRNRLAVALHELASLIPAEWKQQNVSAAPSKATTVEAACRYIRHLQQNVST
CATGTTTTGCCCGAAATCGTGCCAGTGATAAATCGGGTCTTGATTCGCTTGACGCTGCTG: 8870 a.u.
AAAGCGGTAATTTTTCACGTGCAGTCAAATATCTATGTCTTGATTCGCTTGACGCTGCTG: 14100 a.u.
GTCTTGTCTCATTATCACGTGTTTTTCCCCACTTCAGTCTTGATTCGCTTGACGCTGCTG: 14400 a.u.
CATACCCAACCTTGCGTAGTGGGTGAAGATATTTGTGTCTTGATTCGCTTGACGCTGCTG: 4590 a.u.
CATACCCAACCTTGTCACTAGACTTAAGATATTTGTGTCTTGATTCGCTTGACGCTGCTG: 3430 a.u.
CACAAGACGATTTTGCACGTGGTGAGTTTTGTAAGCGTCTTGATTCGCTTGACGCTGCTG: 16800 a.u.
GTATTTTTTGTTTTTCACGTGATGGAATCGGCTTCGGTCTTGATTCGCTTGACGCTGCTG: 13700 a.u.
GTATTTTAACCACTGCTCGTGAAGACCACTCCAGTGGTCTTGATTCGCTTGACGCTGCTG: 6010 a.u.
TTCCAGGAATAAAAGACCGTGCCAGTAATTTCAAGTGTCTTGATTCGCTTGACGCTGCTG: 8070 a.u.
CACAATGAAAAGGTCCACGTGGTGGGGACTGAGGCCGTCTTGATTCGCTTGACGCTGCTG: 18700 a.u.
ACATCATTCAAGCTAAGCGTGATGGCAAGGCTGCTGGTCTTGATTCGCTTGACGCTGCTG: 6140 a.u.

Set 3 — target: CCNF, cyclin fold, Cln2 fusion (human); technique: yeast growth competition, sequencing; sample: yeast; notes: strong parent motif; relative to: not given; reading: higher = stronger binding; quantity: normalised enrichment score
Parent: BRCA2 docking peptide (human); PSIKRNLLNEFDR
PSIKRNALNEFDR [L7A]: 0.609
PSIKRNLLNEFTR [D12T]: 2.12
PSIKRNLTNEFDR [L8T]: 1.47
PPIKRNLLNEFDR [S2P]: 2.73
PTIKRNLLNEFDR [S2T]: 2.75
PSIKRNDLNEFDR [L7D]: -0.517
PYIKRNLLNEFDR [S2Y]: 2.62
PSIKRNLLNEFAR [D12A]: 3.31
PSIKRNLINEFDR [L8I]: 2.23
PSIKRNLLNEFDN [R13N]: 3.28
PSIKRNLLNYFDR [E10Y]: 3.45
PSIKRNLENEFDR [L8E]: 1.42
PSIKRNLLNEFDW [R13W]: 5
PSSKRNLLNEFDR [I3S]: 1.09
PSIKINLLNEFDR [R5I]: 0.206

Set 4 — technique: EMSA with sequencing; form: double-stranded DNA, one strand shown; sample: in vitro; tested at: 10 and 20 nM; relative to: negative control set to 0; reading: higher = stronger binding; quantity: normalised bound fraction
Target: Hepatocyte nuclear factor 3-alpha (Foxa1, Mus musculus, UniProt P35582, residues 1-468, full length assumed)
Notes: whole designed probe, mean of two concentrations, ends assumed
Residues (chain): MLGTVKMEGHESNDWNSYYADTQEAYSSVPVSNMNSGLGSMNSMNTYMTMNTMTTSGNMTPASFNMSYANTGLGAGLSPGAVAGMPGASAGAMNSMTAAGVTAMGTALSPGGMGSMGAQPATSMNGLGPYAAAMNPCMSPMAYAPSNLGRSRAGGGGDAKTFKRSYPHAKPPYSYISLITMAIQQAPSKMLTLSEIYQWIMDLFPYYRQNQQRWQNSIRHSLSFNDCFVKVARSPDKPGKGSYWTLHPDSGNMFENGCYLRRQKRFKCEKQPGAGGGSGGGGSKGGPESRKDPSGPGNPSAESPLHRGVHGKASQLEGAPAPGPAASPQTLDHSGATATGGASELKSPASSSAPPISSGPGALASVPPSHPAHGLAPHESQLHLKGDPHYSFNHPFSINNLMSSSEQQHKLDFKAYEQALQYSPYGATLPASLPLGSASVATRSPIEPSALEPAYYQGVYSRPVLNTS
GTGAGCGGTGCCCATTGATGGGGAACATCCCAGGGCCTCTGGGCCTCCCACTGCACTGTGTCATCTGCCATTTGGTGTTTTCTTGGAGAAGAAGCTCTGTCATCTTCTTACATGAGCAAAGTAAACATCTATGTCTCTCCCACATTGTTGGTCATGTTTTCTGTTACTTGCAGCTGAATGCATTCCTGTGCCATCAATCATGTCCACTTTAGAGATAAATTTCACTGGGATCGTGGGGAC: 0.369 ratio
GTGAGCGGTGCCCATTGATGGGGAACCGCGCCCGGACAGGACATGGGGGTTTCTAAACAAGGCTCTTCAGTATCAGCTCATTGTGAGTCACAGATCAGATCTGCCCAGTTCTCTTTTGCAGATGACATTGTTGTTTCCTCTGCAGGATTCAGCAGTACTGAAAGGGTTATTCAGTCCCAACATGGGATCTTTACACAAGAAGGGGAGCTTGTGAAATGCTTTCACTGGGATCGTGGGGAC: -0.0115 ratio
GTGAGCGGTGCCCATTGATGGGGAACCAATGGGGTAGGTCAGCCCCAGTGAACTCTCAAATGACCACTGAAGGAGGAAGTGAGTGCAGAGTGTGATACCACTCACATCCCAGCCCAGACTGTTTGCTCAGCTGGGAGGAGTGTTCTTCCTGCATTGCAATTCGAGATAACACCCCTTCTCATGGCTTCAGGCATCACCTATCTCCTCTAGGCTGCGCTCTTTCACTGGGATCGTGGGGAC: 0.188 ratio
GTGAGCGGTGCCCATTGATGGGGAACATCTTCCCCCTCTTCCTTGCCCCACCAGCTCACCTTCCCGGGTATATTGGAGATAGGAAATTAATATAAGCCGGCATTCGTTAACCCTCTTCTGGCGCAAACTGCTGTTTGCTCTGGATCTAACATGGTCCTTTGGCGACGCCAGGCTCCGGGAGAGCAAAGCACCGTGTCAGGGCCATGATCCGGGGTGGCCTTTCACTGGGATCGTGGGGAC: 0.114 ratio

Set 5 — technique: RNA Bind-n-Seq; form: RNA; sample: in vitro; tested at: not given; relative to: input RNA pool; reading: higher = stronger binding; quantity: bound/input enrichment
Target: RING finger protein unkempt homolog, zinc fingers 1-6, GST-SBP tag (UNK, Homo sapiens, UniProt Q9C0B0, residues 30-357)
Sequence of UniProt Q9C0B0 (30-357, looked up): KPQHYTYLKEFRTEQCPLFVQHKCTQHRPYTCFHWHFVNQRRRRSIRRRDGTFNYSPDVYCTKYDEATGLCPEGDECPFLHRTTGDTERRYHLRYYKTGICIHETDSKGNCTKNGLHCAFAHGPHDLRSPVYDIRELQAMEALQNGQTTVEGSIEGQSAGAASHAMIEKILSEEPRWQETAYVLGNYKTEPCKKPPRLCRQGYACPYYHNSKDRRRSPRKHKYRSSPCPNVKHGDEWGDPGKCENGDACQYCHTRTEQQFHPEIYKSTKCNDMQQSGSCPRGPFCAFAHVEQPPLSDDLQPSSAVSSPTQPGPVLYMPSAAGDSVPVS
Notes: RNA with constant flanks, human and mouse sites, ends assumed
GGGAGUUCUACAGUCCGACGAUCGCACCCCAGCUGCAGCCCAACCCUGAGCCCGAAGGAGACUCGGAUGACAGCACUGCCCUAGGCACCCUAGAAUUCACACUUCUCUUUGAUGAGGACAACAGCGCCCUGCACUGCACAGCCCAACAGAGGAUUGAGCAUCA: 0.56 ratio
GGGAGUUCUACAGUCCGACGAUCAGGAGGAGGUUUGCAUCACGGAUCAUAGAUAGCCUGUUUAAUACAGUGACCGAUAAGAAGAUAGCUAUCUUGGGGUUUGCAUUCAAAAAGGAUACUGGUGAUACCAGAGAAUCCUCCAGUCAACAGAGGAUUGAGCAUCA: 0.405 ratio
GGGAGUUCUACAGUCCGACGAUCAGACAUGUCCUCACGUACAUGGAGGAUGCAGUGUGCCAGCUGCUGGAGAACAGGGAGGAUAUUAGCCAGUAUGGCAUUGCCCGGUUCUUCACUGACUAUUUUAACAGCGUAUGCCAAGGACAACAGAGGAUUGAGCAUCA: 0.116 ratio
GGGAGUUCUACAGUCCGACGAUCUGUAUUGGUCGGUGGUCCUGCCCCUAAAGUCAAGCCCCUACAUCAGUUUUACAGUAUAAAUACUCGUACUACCUUAUAAGGAAGCACUUAGUGGACUCCUUAAAGUUCCAUUUGCUAAUGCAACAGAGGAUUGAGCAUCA: 0.114 ratio
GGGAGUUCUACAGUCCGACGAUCUUAGUAUCCAAUUUCGAUCAGCAGCAGCUUGCUAACUUCUGCAGGAUCCUGGCUGUCACCAUUUCAGAGAUGGACACGGGGAAUGACGACAAACACACGCUUCUUGCCAAAAAUGCUCAGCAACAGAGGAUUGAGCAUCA: 0.638 ratio
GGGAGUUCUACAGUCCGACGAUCACCAUUCAGGGAAACAGCAAAGGCCCCAGAGUCAAGGAACUAAACUGUGUGAAAGAAGUGACUUUGGAUGGAAGCUUUGAGGAUACGGGGAACACUGAAAGAGAACAUCAGGUCUGCGUCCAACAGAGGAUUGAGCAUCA: 0.13 ratio

Repeated from above (set 1):
ACTTCGTG: 0.109
ATCGCTTC: 0.0975
GGTTGTCA: -0.0976
ATTGTGAC: -0.0907
